# Assay results from different studies.
# Values joined by “and” are separate records of one study, mostly repeats; a detail may differ. Numbers after ± are the reported error.
# Organism: Staphylococcus aureus
Compound,assay,test system,conditions,scale,endpoint,result
N=C(N)NCCC[C@H](NC(=O)[C@H](CCCNC(=N)N)NC(=O)[C@H](CCCNC(=N)N)NC(=O)[C@H](CCC(N)=O)NC(=O)[C@H](CCCNC(=N)N)NC(=O)[C@H](CCCNC(=N)N)NC(=O)[C@H](CCCCN)NC(=O)[C@H](CCCCN)NC(=O)[C@H](CCCNC(=N)N)NC(=O)CNC(=O)[C@H](Cc1ccc(O)cc1)NC(=O)[C@H](Cc1ccccc1)NC(=O)[C@H](Cc1ccccc1)NC(=O)[C@H](Cc1ccccc1)NC(=O)OCC1c2ccccc2-c2ccccc21)C(=O)O,"ELISA, measured: TNF-α, IL-1β, IL-6","RAW264.7 29213, cell supernatant","32 µM, 4 h",,pro-inflammatory cytokine levels,decreased
CC(C)[C@H]1NC(=O)[C@H](Cc2ccccc2)NC(=O)[C@@H](C(C)C)NC(=O)[C@@H](C)NC(=O)[C@H](CO)NC(=O)[C@@H](Cc2c(-c3ccc(-c4ccc(-c5ccccc5)cc4)cc3)[nH]c3ccccc23)NC(=O)[C@@H](CO)NC1=O,broth dilution,,,,MIC90,> 50 µM
COc1cc(OC)cc(B(O)O)c1,crystal violet,USA300 wild type,10 µM,relative to: wild type untreated,biofilm formation,48.9% and 45.9% and 45.7%
CCc1ccn2c(C(=O)NC(C)c3ccccc3)c(C)nc2c1 (centres unmarked),microbial growth,SG511,2 mM,,inhibition zone,0 mm
CC(C)C[C@H](NC(=O)[C@H](CCN)NC(=O)[C@H](CCN)NC(=O)[C@@H](Cc1ccccc1)NC(=O)[C@H](CC(C)C)NC(=O)[C@H](CCN)NC(=O)[C@H](CCN)NC(=O)[C@@H](CCN)NC(=O)CCS)C(N)=O,,ATCC 6538,"24 h, 37 °C",,MBC,64 µM
O=c1n(CCNCCOS(=O)(=O)c2ccccc2)c(=O)n(S(=O)(=O)c2ccccc2)c(=O)n1S(=O)(=O)c1ccccc1,broth microdilution,,,,MLC,8 ± 2 µg/mL
CCc1ccn2c(C(=O)N(C)Cc3ccccc3)c(C)nc2c1,microbial growth,SG511,"2 mM, 20 h",,inhibition zone,0 mm
OB(O)c1ccc(C(F)(F)F)s1,crystal violet,USA300 wild type,50 µM,relative to: wild type untreated,biofilm formation,32.2% and 29.7% and 36.5%
CC[C@H](C)[C@H](N)C(=O)N[C@@H](CC(N)=O)C(=O)N[C@H]1CCSC(=O)[C@H](CC(C)C)NC(=O)[C@H](CC(C)C)NC(=O)[C@H](Cc2ccccc2)NC(=O)[C@H](CC(=O)O)NC1=O,"reporter gene, activator, β-lactamase reporter","agr reporter cells, CA3-III",80 min,,EC50,> 10 µM
CC[C@H](C)[C@@H]1NC(=O)[C@H](CO)NC(=O)[C@H](CCCCN)NC(=O)[C@@H]2CSSC[C@@H](C(=O)N[C@@H](Cc3ccc(O)cc3)C(N)=O)NC(=O)[C@H](CCCCN)NC(=O)[C@@H]3CSSC[C@H](NC(=O)[C@H](CCCNC(=N)N)NC(=O)[C@H](CC(C)C)NC(=O)[C@H](CC(=O)O)NC(=O)[C@H](CC(=O)O)NC(=O)[C@H](CCC(=O)O)NC(=O)[C@H](CC(N)=O)NC(=O)[C@H](Cc4c[nH]c5ccccc45)NC(=O)C(C)(CC)NC(=O)CNC(=O)[C@H](CC(N)=O)NC(=O)[C@@H](NC(=O)CNC(=O)[C@H](Cc4ccccc4)NC(=O)CN)CSSC[C@H](NC(=O)[C@H](Cc4ccc(O)cc4)NC(=O)CNC(=O)CNC(=O)[C@H](CCCCN)NC(=O)[C@H](Cc4ccc(O)cc4)NC(=O)[C@H]4CCCN4C(=O)[C@@H]4CCCN4C1=O)C(=O)N[C@@H](C)C(=O)N[C@@H](CCCCN)C(=O)N1CCC[C@@H]1C(=O)NCC(=O)N[C@@H](Cc1ccccc1)C(=O)N[C@@H](C(C)C)C(=O)N3)C(=O)N[C@@H](Cc1c[nH]cn1)C(=O)N[C@@H](CC(N)=O)C(=O)N[C@@H](Cc1c[nH]cn1)C(=O)N2 (some centres unmarked),,473,"24 h, 37 °C, 99.9% killing",,MBC,2 µM
CC(C)[C@H]1NC(=O)[C@H](Cc2ccccc2)NC(=O)[C@@H](C(C)C)NC(=O)[C@@H](C)NC(=O)[C@H](CO)NC(=O)[C@@H](Cc2c(-c3ccc(C4CCCCC4)cc3)[nH]c3ccccc23)NC(=O)[C@@H](CO)NC1=O,broth dilution,,,,MIC90,> 50 µM
CC[C@H](C)[C@@H]1NC(=O)[C@H](CO)NC(=O)[C@H](CCCCN)NC(=O)[C@@H]2CSSC[C@@H](C(=O)N[C@@H](Cc3ccc(O)cc3)C(N)=O)NC(=O)[C@H](CCCCN)NC(=O)[C@@H]3CSSC[C@H](NC(=O)[C@H](CCCNC(=N)N)NC(=O)[C@H](CC(C)C)NC(=O)[C@H](CC(=O)O)NC(=O)[C@H](CC(=O)O)NC(=O)[C@H](CCC(=O)O)NC(=O)[C@H](CC(N)=O)NC(=O)[C@H](Cc4c[nH]c5ccccc45)NC(=O)[C@@H]4CCCN4C(=O)CNC(=O)[C@H](CC(N)=O)NC(=O)[C@@H](NC(=O)CNC(=O)[C@H](Cc4ccccc4)NC(=O)CN)CSSC[C@H](NC(=O)[C@H](Cc4ccc(O)cc4)NC(=O)CNC(=O)CNC(=O)[C@H](CCCCN)NC(=O)[C@H](Cc4ccc(O)cc4)NC(=O)CNC(=O)[C@H](CCCCN)NC1=O)C(=O)N[C@@H](C)C(=O)N[C@@H](CCCCN)C(=O)NCC(=O)NCC(=O)N[C@@H](Cc1ccccc1)C(=O)N[C@@H](C(C)C)C(=O)N3)C(=O)N[C@@H](Cc1c[nH]cn1)C(=O)N[C@@H](CC(N)=O)C(=O)N[C@@H](Cc1c[nH]cn1)C(=O)N2,,473,"24 h, 37 °C, 99.9% killing",,MBC,0.5 µM
c1ccc(CN2CCOCCOCCN(CCCCCCCCCCN3CCOCCOCCN(CCCCCCCCCCN4CCOCCOCCN(Cc5ccccc5)CCOCCOCC4)CCOCCOCC3)CCOCCOCC2)cc1,"ethidium bromide activity, efflux inhibitor",1199B NorA overexpressing,"half MIC, together with: ethidium bromide",relative to: ethidium bromide alone,fold enhancement,16 fold
CC[C@H](C)[C@@H]1NC(=O)[C@@H](CCCNC(=N)N)NC(=O)[C@@H](NC(=O)[C@@H](CC(C)C)NC(=O)[C@H](C)NC(=O)[C@H](C)NC(=O)[C@@H]2CCCN2C(=O)[C@@H](CC(C)C)NC(=O)[C@@H](NC(=O)[C@@H](CCCNC(=N)N)NC(=O)[C@@H](CC(C)C)NC(=O)[C@@H](CC(C)C)NC(=O)[C@@H](NC(=O)[C@@H](CCCNC(=N)N)NC(=O)[C@@H](CC(C)C)NC(=O)[C@@H](NC(=O)[C@@H](NC(=O)CNC(=O)[C@@H](CC(C)C)NC(=O)[C@@H](N)Cc2ccccc2)[C@@H](C)O)C(C)C)C(C)C)C(C)C)CSSC[C@@H](C(=O)O)NC(=O)[C@@H](CCCNC(=N)N)NC(=O)[C@@H](CCCNC(=N)N)NC(=O)[C@H](Cc2ccccc2)NC1=O,time-kill,MRSA NCTC 12493,2-4 x MIC,,time to eradication,≤ 30 min
CC(C)[C@H]1NC(=O)[C@H](Cc2ccccc2)NC(=O)[C@@H](C(C)C)NC(=O)[C@@H](C)NC(=O)[C@H](C)NC(=O)[C@@H](Cc2c(-c3ccc(-c4ccc5ccccc5c4)cc3)[nH]c3ccccc23)NC(=O)[C@@H](CO)NC1=O,broth dilution,,,,MIC90,> 50 µM
CC1=C[C@@H](C)[C@H]2[C@@H]3C(=O)C(Cl)(Cl)C(=O)[C@H](C)C(=O)O[C@@H](C)/C=C/C=C\[C@@H](C)[C@@H]3C=C[C@@H]2C1,,"Newman compound-resistant mutant Mt6, broth-selected",concentration not given,relative to: parent strain,MIC fold change,8
CCCCCCCCCC(=O)OCCSCCC(=O)N[C@H](CCN)C(=O)N[C@@H](CCN)C(=O)N[C@@H](CCN)C(=O)N[C@@H](CC(C)C)C(=O)N[C@H](Cc1ccccc1)C(=O)N[C@@H](CCN)C(=O)N[C@@H](CCN)C(=O)N[C@@H](CC(C)C)C(N)=O,,ATCC 6538,"24 h, 37 °C",,MBC,8 µM
CC[C@H](C)[C@@H]1NC(=O)[C@H](CCC(N)=O)NC(=O)[C@@H](NC(=O)[C@H](CC(C)C)NC(=O)[C@H](C)NC(=O)[C@H](C)NC(=O)[C@@H]2CCCN2C(=O)[C@H](CC(C)C)NC(=O)[C@@H](NC(=O)[C@H](CCCCN)NC(=O)[C@H](C)NC(=O)[C@H](C)NC(=O)[C@@H](NC(=O)[C@H](CCCCN)NC(=O)[C@H](CC(C)C)NC(=O)[C@@H](NC(=O)[C@@H](NC(=O)CNC(=O)[C@H](CC(C)C)NC(=O)[C@@H](N)Cc2ccccc2)[C@@H](C)O)C(C)C)C(C)C)C(C)C)CSSC[C@@H](C(=O)O)NC(=O)[C@H](CCCCN)NC(=O)[C@H](CCCCN)NC(=O)[C@H](Cc2ccccc2)NC1=O,time-kill,ATCC 6538,2-4 x MIC,,time to eradication,≤ 120 min
C[C@H](N)[C@@H](CCCCCCCCCCCCCCC(=O)CCCCCCC[C@@H](O)[C@@H](C)N)O[C@@H]1O[C@H](CO)[C@H](O)[C@H](O)[C@H]1O,"microbial growth, resazurin",ATCC12600,50 µM,,inhibition,98%
CCCNC(=O)[C@H](Cc1ccc(O)cc1)NC(=O)[C@@H]1Cc2ccc(O)c(c2)-c2cc(ccc2O)[C@@H](NC(=O)[C@@H](NC(=O)[C@H](CC(N)=O)NC(=O)[C@@H](Cc2ccc(O)cc2)NC(=O)[C@@H](CC(C)C)NC)c2ccc(O)cc2)C(=O)N1,bacterial growth,,,,IC50,> 40 µM
